Assay results of several laboratories.
Compare with care: the assays were run in different laboratories.
Organism: Staphylococcus aureus

SMILES | assay | system | setting | MIC
CC[C@H](C)[C@H](NC(=O)[C@H](CC(=O)O)NC(=O)[C@H](Cc1ccccc1)NC(=O)[C@H](CC(C)C)NC(=O)CN)C(=O)N[C@H](C(=O)N[C@@H](CCCCN)C(=O)N[C@@H](CCCCN)C(=O)N[C@H](C(=O)N[C@H](C(=O)NCC(=O)N[C@@H](CC(C)C)C(=O)N[C@@H](CC(C)C)C(=O)N[C@@H](CCCCN)C(N)=O)C(C)C)C(C)C)C(C)C | – | ATCC 43300, CAMHB | 18 h, 37 °C | > 21 µM
CC[C@H](C)[C@H](NC(=O)[C@H](CCCCN)NC(=O)[C@H](CC(C)C)NC(=O)[C@H](Cc1ccccc1)NC(=O)[C@H](CCCNC(=N)N)NC(=O)[C@H](CC(C)C)NC(=O)[C@H](Cc1ccccc1)NC(=O)[C@H](CCCNC(=N)N)NC(=O)[C@H](CO)NC(=O)[C@H](CC(C)C)NC(=O)[C@@H](N)CO)C(=O)N[C@H](C(=O)N[C@@H](Cc1ccc(O)cc1)C(=O)N[C@@H](CCCNC(=N)N)C(=O)N[C@@H](CCCNC(=N)N)C(=O)N[C@@H](C)C(=O)N[C@@H](Cc1ccccc1)C(N)=O)C(C)C | broth microdilution | USA300 LAC | 37 °C | 12.5 µM
CC[C@H](C)[C@H](NC(=O)[C@H](C)NC(=O)[C@@H](NC(=O)[C@H](C)NC(=O)CN)[C@@H](C)O)C(=O)N[C@@H](CCCCN)C(=O)N[C@@H](CCC(N)=O)C(=O)N[C@H](C(=O)N[C@@H](CCCCN)C(=O)N[C@@H](CCCCN)C(=O)N[C@@H](CC(C)C)C(=O)N[C@@H](Cc1ccccc1)C(=O)N[C@@H](CCCCN)C(=O)N[C@@H](CCCCN)C(=O)N[C@@H](CCCCN)C(=O)NCC(=O)NCC(N)=O)C(C)C | broth microdilution | ATCC 25923 | 24 h, 37 °C | 310 µM
CCCCCCCC1CC(=O)c2c(O)cc(O)cc2O1 (centres unmarked) | broth microdilution | MRSA NRS70 | – | 3.13 to 6.25 µg/mL
CN[C@H](CC(C)C)C(=O)N[C@H]1C(=O)N[C@@H](CC(N)=O)C(=O)N[C@H]2C(=O)N[C@H]3C(=O)N[C@H](C(=O)N[C@H](C(=O)O)c4cc(O)cc(O)c4-c4cc3ccc4O)[C@H](O)c3ccc(c(Cl)c3)Oc3cc2cc(c3O[C@@H]2O[C@H](CO)[C@@H](O)[C@H](O)[C@H]2O[C@H]2C[C@](C)(N)[C@H](O)[C@H](C)O2)Oc2ccc(cc2Cl)[C@H]1O | – | VRSA VRS1/HIP11714 | 20 h | > 200 µg/mL
NC(=O)c1cccc(O)c1O | – | ATCC 29213 | 50 µg/mL | inactive
CC[C@H](C)[C@H](NC(=O)CNC(=O)[C@H](CCCNC(=N)N)NC(=O)[C@H](Cc1ccccc1)NC(=O)[C@@H](NC(=O)[C@H](Cc1c[nH]cn1)NC(=O)[C@H](Cc1c[nH]cn1)NC(=O)[C@H](Cc1ccccc1)NC(=O)[C@@H](N)Cc1ccccc1)[C@@H](C)CC)C(=O)N[C@H](C(=O)N[C@@H](Cc1c[nH]cn1)C(=O)N[C@H](C(=O)NCC(=O)N[C@@H](CCCCN)C(=O)N[C@H](C(=O)N[C@@H](C)C(=O)N[C@@H](Cc1c[nH]cn1)C(=O)N[C@@H](CCCNC(=N)N)C(=O)N[C@@H](CC(C)C)C(=O)N[C@H](C(=O)N[C@H](C(=O)NCC(N)=O)[C@@H](C)O)C(C)C)[C@@H](C)O)C(C)C)C(C)C | broth microdilution | ATCC 25923 | 18 h, 37 °C | 3.1 µg/mL
CN[C@H](CC(C)C)C(=O)N[C@H]1C(=O)N[C@@H](CC(N)=O)C(=O)N[C@H]2C(=O)N[C@H]3C(=O)N[C@H](C(=O)N[C@H](C(=O)O)c4cc(O)cc(O)c4-c4cc3ccc4O)[C@H](O)c3ccc(c(Cl)c3)Oc3cc2cc(c3O[C@@H]2O[C@H](CO)[C@@H](O)[C@H](O)[C@H]2O[C@H]2C[C@](C)(N)[C@H](O)[C@H](C)O2)Oc2ccc(cc2Cl)[C@H]1O | – | MSSA ATCC 29213 | – | 1 µg/mL
CC[C@H](C)[C@H](N)C(=O)N[C@@H](CC(N)=O)C(=O)N[C@@H](CC(C)C)C(=O)N[C@@H](CCCCN)C(=O)N[C@@H](C)C(=O)N[C@H](C(=O)N[C@@H](C)C(=O)N[C@@H](C)C(=O)N[C@@H](CC(C)C)C(=O)N[C@@H](C)C(=O)N[C@@H](CCCCN)C(=O)N[C@@H](CCCCN)C(=O)N[C@@H](CC(C)C)C(=O)N[C@@H](CC(C)C)C(=O)O)[C@@H](C)CC | broth microdilution | USA300 LAC | 37 °C | > 100 µM
CC(=O)C1=C(O)C(CC(C)C)NC1=O (centres unmarked) | microbial growth, broth dilution | MSSA NEWMAN | – | > 200 µg/mL
N=C(N)NCCC[C@H](NC(=O)[C@H](Cc1c[nH]cn1)NC(=O)[C@@H]1CCCN1C(=O)[C@H](CS)NC(=O)[C@@H](N)Cc1ccc(O)cc1)C(=O)N[C@@H](CS)C(=O)O | broth microdilution | MTCC 96 | 37 °C | 110 µg/mL
CC(C)C[C@H](NC(=O)[C@H](C)NC(=O)CNC(=O)[C@@H](NC(=O)[C@H](CC(C)C)NC(=O)[C@H](CCCCN)NC(=O)[C@H](CCCCN)NC(=O)[C@H](CC(C)C)NC(=O)[C@H](CC(C)C)NC(=O)[C@H](CCCCN)NC(=O)[C@H](CC(C)C)NC(=O)[C@H](CC(C)C)NC(=O)[C@@H](N)CCCCN)C(C)C)C(=O)NCC(N)=O | – | SH1000 GFP-expressing, nutrient broth | 20 h, 37 °C | 10 µM
O=[N+]([O-])c1ccc(Oc2cccc3cccnc23)c([N+](=O)[O-])c1 | microbial growth | ATCC25923 | – | 125 µg/mL
CC[C@H](C)[C@H](NC(=O)[C@H](CCCNC(=N)N)NC(=O)[C@@H]1CCCN1C(=O)[C@H](Cc1c[nH]cn1)NC(=O)[C@@H]1CCCN1C(=O)[C@@H]1CCCN1C(=O)[C@H](CCCNC(=N)N)NC(=O)[C@@H]1CCCN1C(=O)[C@H](CCC(N)=O)NC(=O)[C@@H]1CCCN1C(=O)[C@@H](NC(=O)[C@H](Cc1ccc(O)cc1)NC(=O)[C@@H](NC(=O)[C@@H]1CCCN1C(=O)[C@H](CCCNC(=N)N)NC(=O)[C@H](CC(N)=O)NC(=O)[C@H](CC(N)=O)NC(=O)CN)C(C)C)[C@@H](C)CC)C(=O)O | broth microdilution | USA300 LAC | 37 °C | > 100 µM
CC[C@H](C)[C@H](NC(=O)[C@H](CCCCN)NC(=O)[C@H](CCC(=O)O)NC(=O)[C@H](CCCCN)NC(=O)[C@H](CO)NC(=O)[C@H](CCCCN)NC(=O)[C@H](CCCNC(=N)N)NC(=O)[C@H](Cc1ccccc1)NC(=O)[C@H](Cc1ccccc1)NC(=O)[C@H](CC(=O)O)NC(=O)CNC(=O)[C@H](CC(C)C)NC(=O)[C@@H](N)CC(C)C)C(=O)NCC(=O)N[C@@H](CCCCN)C(=O)N[C@@H](CCC(=O)O)C(=O)N[C@@H](Cc1ccccc1)C(=O)N[C@@H](CCCCN)C(=O)N[C@@H](CCCNC(=N)N)C(=O)N[C@H](C(=O)N[C@H](C(=O)N[C@@H](CCC(N)=O)C(=O)N[C@@H](CCCNC(=N)N)C(=O)N[C@H](C(=O)N[C@@H](CCCCN)C(=O)N[C@@H](CC(=O)O)C(=O)N[C@@H](Cc1ccccc1)C(=O)N[C@@H](CC(C)C)C(=O)N[C@@H](CCCNC(=N)N)C(=O)N[C@@H](CC(N)=O)C(=O)N[C@@H](CC(C)C)C(=O)N[C@H](C(=O)N1CCC[C@H]1C(=O)N[C@@H](CCCNC(=N)N)C(=O)N[C@H](C(=O)N[C@@H](CCC(=O)O)C(=O)N[C@@H](CO)C(=O)O)[C@@H](C)O)C(C)C)[C@@H](C)CC)C(C)C)[C@@H](C)CC | broth microdilution | media-adapted JE2 | 18 to 20 h | 192 µg/mL
CC[C@H](C)[C@H](NC(=O)CNC(=O)[C@H](CCCNC(=N)N)NC(=O)[C@H](Cc1ccccc1)NC(=O)[C@@H](NC(=O)[C@H](Cc1c[nH]cn1)NC(=O)[C@H](Cc1c[nH]cn1)NC(=O)[C@H](Cc1ccccc1)NC(=O)[C@@H](N)Cc1ccccc1)[C@@H](C)CC)C(=O)N[C@H](C(=O)N[C@@H](Cc1c[nH]cn1)C(=O)N[C@H](C(=O)NCC(=O)N[C@@H](CCCCN)C(=O)N[C@H](C(=O)N[C@H](C(=O)N[C@@H](Cc1c[nH]cn1)C(=O)N[C@@H](CCCNC(=N)N)C(=O)N[C@@H](CC(C)C)C(=O)N[C@H](C(=O)N[C@H](C(=O)NCC(=O)O)[C@@H](C)O)C(C)C)[C@@H](C)CC)[C@@H](C)O)C(C)C)C(C)C | broth microdilution | USA300 LAC | 37 °C | 3.1 µM
CC(C)C[C@H](NC(=O)[C@H](CC(C)C)NC(=O)[C@H](CCCCN)NC(=O)[C@H](CC(C)C)NC(=O)[C@H](CC(C)C)NC(=O)[C@H](CCCCN)NC(=O)[C@H](CCCCN)NC(=O)[C@H](CC(C)C)NC(=O)[C@H](CC(C)C)NC(=O)[C@H](CCCCN)NC(=O)[C@H](CC(C)C)NC(=O)[C@H](CC(C)C)NC(=O)[C@@H](N)CCCCN)C(=O)N[C@@H](CCCCN)C(N)=O | – | ATCC 43300, CAMHB | 18 h, 37 °C | 19 µM
CC[C@H](C)[C@H](NC(=O)CN)C(=O)NCC(=O)N[C@@H](C)C(=O)N[C@H](C(=O)N[C@@H](CC(C)C)C(=O)N[C@@H](CCCCN)C(=O)N[C@H](C(=O)N[C@@H](CC(C)C)C(=O)N[C@H](C(=O)N[C@H](C(=O)NCC(=O)N[C@@H](CC(C)C)C(=O)N1CCC[C@H]1C(=O)N[C@@H](C)C(=O)N[C@@H](CC(C)C)C(=O)N[C@H](C(=O)N[C@@H](CO)C(=O)N[C@@H](Cc1c[nH]c2ccccc12)C(=O)N[C@H](C(=O)N[C@@H](CCCCN)C(=O)N[C@@H](CCCNC(=N)N)C(=O)N[C@@H](CCCCN)C(=O)N[C@@H](CCCNC(=N)N)C(=O)N[C@@H](CCC(N)=O)C(=O)N[C@@H](CCC(N)=O)C(N)=O)[C@@H](C)CC)[C@@H](C)CC)[C@@H](C)O)[C@@H](C)O)C(C)C)C(C)C | broth microdilution | KCTC 1621 | 16 h, 37 °C | 0.8 µM
CC[C@H](C)[C@H](NC(=O)[C@H](CC(=O)O)NC(=O)[C@H](Cc1ccccc1)NC(=O)[C@H](CC(C)C)NC(=O)CN)C(=O)N[C@H](C(=O)N[C@@H](CCCCN)C(=O)N[C@@H](CCCCN)C(=O)N[C@H](C(=O)N[C@H](C(=O)NCC(=O)N[C@@H](C)C(=O)N[C@@H](CC(C)C)C(=O)N[C@@H](CCCCN)C(N)=O)C(C)C)C(C)C)C(C)C | – | ATCC 43300, CAMHB | 18 h, 37 °C | > 22 µM
O=c1cc(C(F)(F)F)[nH]c2cc(C(F)(F)F)cc(Nc3ccc(C(F)(F)F)cn3)c12 | – | – | – | < 0.125 µg/mL

Some of these lines once more:
SMILES | assay | system | setting | MIC
CC[C@H](C)[C@H](NC(=O)CNC(=O)[C@H](CCCNC(=N)N)NC(=O)[C@H](Cc1ccccc1)NC(=O)[C@@H](NC(=O)[C@H](Cc1c[nH]cn1)NC(=O)[C@H](Cc1c[nH]cn1)NC(=O)[C@H](Cc1ccccc1)NC(=O)[C@@H](N)Cc1ccccc1)[C@@H](C)CC)C(=O)N[C@H](C(=O)N[C@@H](Cc1c[nH]cn1)C(=O)N[C@H](C(=O)NCC(=O)N[C@@H](CCCCN)C(=O)N[C@H](C(=O)N[C@@H](C)C(=O)N[C@@H](Cc1c[nH]cn1)C(=O)N[C@@H](CCCNC(=N)N)C(=O)N[C@@H](CC(C)C)C(=O)N[C@H](C(=O)N[C@H](C(=O)NCC(N)=O)[C@@H](C)O)C(C)C)[C@@H](C)O)C(C)C)C(C)C | broth microdilution | ATCC 25923 | 18 h, 37 °C | 3.1 µg/mL
N=C(N)NCCC[C@H](NC(=O)[C@H](Cc1c[nH]cn1)NC(=O)[C@@H]1CCCN1C(=O)[C@H](CS)NC(=O)[C@@H](N)Cc1ccc(O)cc1)C(=O)N[C@@H](CS)C(=O)O | broth microdilution | MTCC 96 | 37 °C | 110 µg/mL
CC(=O)C1=C(O)C(CC(C)C)NC1=O (centres unmarked) | microbial growth, broth dilution | MSSA NEWMAN | – | > 200 µg/mL
